Results pooled from the literature.
Each line is one published result; not all experiments were run side by side. “And” joins repeats or separate records; there may be more than shown. Numbers after ± are the reported error.
uncharacterized protein: uncharacterized protein (Anopheles coluzzii, UniProt A0A6E8VQK1)

SMILES	target	assay	test system	conditions	how to read	measurement	result
CNC(=O)Oc1cccc2c1OC(C)(C)O2	uncharacterized protein	enzyme activity, inhibitor	Sf9 cell homogenate	0.1163 µM, 0.1667 h, added: α-naphthyl acetate substrate	reference: no inhibitor	remaining activity	96.1%
C[C@H]1CN(c2n[nH]c3nc(N[C@H]4CC[C@H](NS(=O)(=O)CCC(F)(F)F)CC4)ncc23)CCO1	Prohibitin-2 (PHB2, Homo sapiens, UniProt Q99623)	inhibitor, Kinobeads competition profiling		20 µM	reference: vehicle	relative abundance	1.13
CC(CCn1ccc(-c2ccc(-c3cn(Cc4ccc(F)cc4)nn3)cc2)cc1=O)(C(=O)NO)S(C)(=O)=O (centres unmarked)	UDP-3-O-acyl-N-acetylglucosamine deacetylase (Pseudomonas aeruginosa, UniProt P47205)	fluorescence		37 °C		residence time	68.2 ± 9.6 min
COc1cc(N)c(Cl)cc1C(=O)NC1CN2CCC1CC2 (centres unmarked)	Mas-related G-protein coupled receptor member X2 (MRGPRX2, Homo sapiens, UniProt Q96LB1)	β-arrestin recruitment, TANGO luminescence		concentration not given	reference: basal luminescence	log2 fold change	-0.196
COc1ccc(N2C(=O)N(c3c(C)cccc3Cl)Cc3cnc(Nc4ccc(C5CCN(C)CC5)cc4OC)nc32)nc1	Eukaryotic translation initiation factor 2-alpha kinase 1 (EIF2AK1, Homo sapiens, UniProt Q9BQI3)	kinase activity		0.5 µM		inhibition	1.31%
O=C(Cc1cccs1)N[C@@H]1C(=O)N2C(C(=O)O)=C(/C=C/c3ccc([N+](=O)[O-])cc3[N+](=O)[O-])CS[C@H]12	Metallo-beta-lactamase type 2 (blaNDM-1, Klebsiella pneumoniae, UniProt C7C422)	hydrolysis, substrate				Km	1.1 ± 0.3 µM
CC(C)=CCC[C@]1(C)C=Cc2c(O)c3c(c(CC=C(C)C)c2O1)O[C@]12C(=C[C@@H]4C[C@H]1C(C)(C)O[C@@]2(C/C=C(/C)C(=O)O)C4=O)C3=O	DNA cross-link repair 1A protein (DCLRE1A, Homo sapiens, UniProt Q6PJP8)	exonuclease activity, inhibitor, fluorescence HTS		10 µM, 80 min, added: 8 nM 5P-FQ substrate		remaining activity	27.3%
COc1cc(Nc2ncc(F)c(Nc3ccc4c(n3)NC(=O)C(C)(C)O4)n2)cc(OC)c1OC	Platelet-derived growth factor receptor alpha (PDGFRA, Homo sapiens, UniProt P16234)	KINOMEscan		10 µM		inhibition	100%
Nc1ncnc2c1ncn2[C@@H]1O[C@H](COP(=O)(O)OP(=O)(O)OP(=O)(O)O)[C@@H](O)[C@H]1O	matB (Rhodopseudomonas palustris, UniProt Q6ND88, C106A/K488A/Q457C/R286C)	ATP binding		pH 7.0, 200 mM NaCl	reference: bound over unbound	fluorescence ratio	3.3
CC12CCC(CC1)C(C)(C)O2	1,8-cineole 2-endo-monooxygenase (cinA, Citrobacter braakii, UniProt Q8VQF6, N242A)	substrate, GC-MS		0 to 2 min, N242A enzyme variant		product formation rate	29 ± 3 min⁻¹
CC[C@H](C)[C@H](NC(=O)[C@@H](NC(=O)[C@H](CC(C)C)NC(=O)[C@H](CC(N)=O)NC(=O)[C@H](CC(=O)O)NC(=O)[C@H](CCC(=O)O)NC(=O)[C@@H](NC(=O)[C@@H](N)CCCNC(=N)N)[C@@H](C)CC)C(C)C)C(=O)N[C@H](C(=O)N[C@@H](CCCNC(=N)N)C(=O)O)[C@@H](C)CC	Epithelial sodium channel subunit gamma (Homo sapiens, UniProt P51170)	binding, bio-layer interferometry				koff	0.0203 s⁻¹
O=C(O)COP(=O)(O)O	TPI1 (Saccharomyces cerevisiae, UniProt P00942, Y208A)	enzyme activity, competitive inhibitor, GPDH/NADH-coupled		pH 5.7, 25 °C, ionic strength 0.1 NaCl, added: glyceraldehyde 3-phosphate substrate	reference: mutant over wild type	Ki ratio	64
O=C1CC(C(=O)O)NC(=O)N1 (centres unmarked)	Dihydroorotate dehydrogenase A (fumarate) (pyrDA, Lactococcus lactis subsp. cremoris, UniProt A2RJT9, V133T)	flavin reduction, stopped-flow	Lactococcus lactis	25 °C		kred	100 ± 1.9 s⁻¹
CC(=O)N[C@H](C(=O)N1C[C@H](O)C[C@H]1C(=O)NCc1ccc(-c2scnc2C)cc1)C(C)(C)SCCCCCCNC(=O)C[C@@H]1N=C(c2ccc(Cl)cc2)c2c(sc(C)c2C)-n2c(C)nnc21	Bromodomain-containing protein 4, BD2 (BRD4, Homo sapiens, UniProt O60885, A384K/E383V/K378Q)	ITC		25 °C, BD2 mutant, binary		ΔG	-10.11 ± 0.01 kcal/mol
CC[C@H](C)[C@H](NC(=O)CNC(=O)[C@@H](N)CCCCN)C(=O)N[C@@H](CC(C)C)C(=O)N[C@@H](CCCCN)C(=O)N[C@@H](CCCNC(=N)N)C(=O)N[C@@H](CCC(=O)O)C(=O)N[C@@H](CCCCN)C(=O)N[C@@H](CCCNC(=N)N)C(=O)N[C@@H](CC(C)C)C(=O)N[C@@H](CCCNC(=N)N)C(=O)N[C@@H](CCCNC(=N)N)C(=O)N[C@@H](CCCCN)C(=O)N[C@@H](CC(N)=O)C(=O)N[C@H](C(=O)N[C@@H](Cc1c[nH]cn1)C(=O)N[C@@H](Cc1c[nH]c2ccccc12)C(=O)N1CCC[C@H]1C(=O)N[C@@H](CCC(=O)O)C(=O)N[C@@H](CCC(=O)O)C(=O)NCC(=O)N[C@@H](CCCCN)C(=O)N[C@@H](CC(C)C)C(=O)N[C@@H](CCCNC(=N)N)C(=O)N[C@@H](CCC(=O)O)C(=O)N[C@@H](Cc1ccc(O)cc1)C(=O)N[C@@H](Cc1ccccc1)C(=O)N[C@@H](Cc1ccc(O)cc1)C(=O)N[C@@H](Cc1ccccc1)C(=O)N[C@@H](CCC(=O)O)C(=O)N[C@@H](CC(C)C)C(=O)N[C@@H](CC(=O)O)C(=O)N[C@@H](CCC(=O)O)C(=O)N[C@@H](C)C(=O)N[C@@H](CCC(=O)O)C(=O)N[C@@H](CCCNC(=N)N)C(=O)N[C@H](C(=O)N[C@@H](CC(N)=O)C(=O)N[C@H](C(=O)O)C(C)C)C(C)C)C(C)C	Serine/threonine-protein phosphatase PP1-alpha catalytic subunit (PPP1CA, Homo sapiens, UniProt P62136)	binding, isothermal titration calorimetry		concentration not given, 25 °C, PP1α residues 7-330		enthalpy change ΔH	-22.4 ± 1.9 kcal/mol
[2H]c1c([2H])c([C@]2([2H])CCCN2C(=O)C(C)(C)Oc2ccc3cn[nH]c3c2)c([2H])c([2H])c1C([2H])([2H])[2H]	Bone morphogenetic protein receptor type-1B (BMPR1B, Homo sapiens, UniProt O00238)	KINOMEscan		1 µM	reference: DMSO control	remaining binding	97%
CC1(C)[C@H](C(=O)O[C@H](C#N)c2cccc(Oc3ccccc3)c2)[C@@H]1C=C(Br)Br	uncharacterized protein	enzyme activity, inhibitor	Sf9 cell homogenate	0.4545 µM, 0.1667 h, added: α-naphthyl acetate substrate	reference: no inhibitor	remaining activity	98.5%
CCCCCCCCc1ccc(C(=O)Nc2ccccc2C(=O)OCC)cc1	Serine/threonine-protein kinase PLK1, polo-box domain (PLK1, Homo sapiens, UniProt P53350)	inhibitor		concentration not given		activity	inactive

SMILES	target	assay	test system	conditions	how to read	measurement	result
CN(C)CCNc1nc2cc(O)ccc2c2c1C(=O)c1ccccc1-2.Cl.Cl	Protein transport protein Sec61 subunit alpha isoform 1 (Homo sapiens, UniProt P61619)	reporter gene, Dual-Glo luciferase	HEK293 with CD4 signal peptide-FLuc	unit not given	reference: mock	RLuc luminescence	0.413
CC(C)[C@@H]1NC(=O)[C@H](C)OC(=O)[C@@H](C(C)C)NC(=O)[C@@H](C(C)C)OC(=O)[C@H](C(C)C)NC(=O)[C@H](C)OC(=O)[C@@H](C(C)C)NC(=O)[C@@H](C(C)C)OC(=O)[C@H](C(C)C)NC(=O)[C@H](C)OC(=O)[C@@H](C(C)C)NC(=O)[C@@H](C(C)C)OC1=O	Metalloendopeptidase OMA1, mitochondrial (OMA1, Homo sapiens, UniProt Q96E52)	Western blot, refers to: Luke-S1	HEK293T, control siRNA	concentration not given		protein level	7.2 ± 4.4%
O=C(Nc1cccnn1)N1CCC(=Cc2cccc(Oc3ccc(C(F)(F)F)cn3)c2)CC1	Alpha-1A adrenergic receptor (Adra1a, Rattus norvegicus, UniProt P43140)	binding		10 µM, added: [3H]prazosin		inhibition	19%
O=C(c1ccc(Cl)cc1)N1CCN2C(=O)N(OC(=O)N3CCOc4ccccc43)C(=O)C2C1 (centres unmarked)	Monocarboxylate transporter 4 (SLC16A3, Homo sapiens, UniProt O15427)	MS-based ABPP	SW-620 conditioned medium	10 µM, 1 h, 37 °C	reference: compound over DMSO, lower = more inhibition	peptide ratio	1.53 and 1.36 and 1.56 and 1.38
c1cncc([C@@H]2CCCCN2)c1	Chrnd/Chrna1/Chrne (Mus musculus, UniProt P02716+P04756+P20782, G173K/S470W)	single-channel kinetics		K chain side site		kon	9e+08 M⁻¹ s⁻¹
CCCCCCCCCCCCCC[N+](C)(C)C	Sodium channel protein type 4 alpha, BTX-activated (Oryctolagus cuniculus, UniProt G1SLL9)			concentration not given		k-1	12.5 s⁻¹
N[C@@H](Cc1ccc(O)c(I)c1)C(=O)O	Iodotyrosine deiodinase (Haliscomenobacter hydrossis, UniProt F4KU78, R38K)				reference: wild type over mutant	affinity decrease	> 10 fold
O=C(Nc1cnccc1Cl)N1CCN(Cc2ccc3c(c2)OC(F)(F)O3)CC1	Inhibitor of nuclear factor kappa-B kinase subunit alpha (CHUK, Homo sapiens, UniProt O15111)	enzyme activity, inhibitor		10 µM		inhibition	1%
O=C1[C@H]2CCCN2[C@H](c2ccc3c(c2)OCO3)N1c1ccc(Cl)c(Cl)c1 (mixture of isomers)	Calcium/calmodulin-dependent protein kinase type II subunit gamma (CAMK2G, Homo sapiens, UniProt Q13555)	ADP-Glo		100 µM	reference: vehicle	kinase activity	no effect
O=C1c2ccccc2C(=O)C1C(=O)C(c1ccccc1)c1ccccc1	Nuclear receptor subfamily 1 group I member 3 (Homo sapiens, UniProt Q14994)			concentration not given		activity	inactive
CN1CCN(c2cc(-c3ccncc3)c(-c3ccc4ccccc4c3)nn2)CC1	Hydroxycarboxylic acid receptor 2 (HCAR2, Homo sapiens, UniProt Q8TDS4)	agonist, FLIPR		12.5 µM		activation	15.4%
Oc1ccc(/C=C/c2cc(O)cc(O)c2)cc1	O-methyltransferase (Sorghum bicolor, UniProt A0A1B6PFV1, W279A)	isothermal titration calorimetry		concentration not given, SFG+		binding stoichiometry N	0.97 ± 0.019 sites
NC[C@H](NC(=O)c1ccc(C#Cc2ccccc2)cc1)C(=O)NO	UDP-3-O-acyl-N-acetylglucosamine deacetylase (Pseudomonas aeruginosa, UniProt P47205, C40S)	isothermal titration calorimetry		concentration not given, 298 K, untagged protein, averaged		entropy change (ΔS)	0.0307 kcal/mol/K
O=P(O)(O)OC[C@H]1C[C@@](O)(CO)[C@@H](O)[C@H](O)[C@@H]1O	valA (Streptomyces hygroscopicus, UniProt H2K887)	phosphate release		150 µM		apparent Vmax	2.7 ± 0.3 µM/min
Cc1nn(C)cc1-c1nc2c(N3CCN(Cc4ccc(Cl)cc4)CC3)c(Cl)cnc2[nH]1	Phosphatidylinositol 4,5-bisphosphate 3-kinase catalytic subunit alpha isoform (PIK3CA, Homo sapiens, UniProt P42336, E542K)	KINOMEscan		1 µM	reference: DMSO control	remaining binding	94%
CN(C(=O)n1cnc(-c2ccc[n+]([O-])c2)c1)C1CCCCC1	Amine oxidase [flavin-containing] A (MAOA, Homo sapiens, UniProt P21397)	enzyme activity, inhibitor		50 µM, human, added: kynuramine substrate		inhibition	3%
Nc1ncnc2c1ncn2[C@H]1C[C@H](O)[C@@H](COP(=O)(O)OP(=O)(O)OP(=O)(O)O)O1	Gag-Pol polyprotein, reverse transcriptase (gag-pol, Human immunodeficiency virus type 1 group M subtype B, UniProt P04585)	single nucleotide extension, substrate		wild type, G:A mismatched primer/template		Km	117 ± 60.1 µM

Excerpt of the above:
SMILES	target	assay	test system	conditions	how to read	measurement	result
C[C@H]1CN(c2n[nH]c3nc(N[C@H]4CC[C@H](NS(=O)(=O)CCC(F)(F)F)CC4)ncc23)CCO1	Prohibitin-2 (PHB2, Homo sapiens, UniProt Q99623)	inhibitor, Kinobeads competition profiling		20 µM	reference: vehicle	relative abundance	1.13
CC(CCn1ccc(-c2ccc(-c3cn(Cc4ccc(F)cc4)nn3)cc2)cc1=O)(C(=O)NO)S(C)(=O)=O (centres unmarked)	UDP-3-O-acyl-N-acetylglucosamine deacetylase (Pseudomonas aeruginosa, UniProt P47205)	fluorescence		37 °C		residence time	68.2 ± 9.6 min
COc1cc(N)c(Cl)cc1C(=O)NC1CN2CCC1CC2 (centres unmarked)	Mas-related G-protein coupled receptor member X2 (MRGPRX2, Homo sapiens, UniProt Q96LB1)	β-arrestin recruitment, TANGO luminescence		concentration not given	reference: basal luminescence	log2 fold change	-0.196
COc1ccc(N2C(=O)N(c3c(C)cccc3Cl)Cc3cnc(Nc4ccc(C5CCN(C)CC5)cc4OC)nc32)nc1	Eukaryotic translation initiation factor 2-alpha kinase 1 (EIF2AK1, Homo sapiens, UniProt Q9BQI3)	kinase activity		0.5 µM		inhibition	1.31%
